{"data": "Published values from different studies", "SOST": "Sclerostin (SOST, Homo sapiens, UniProt Q9BQB4)", "CNR1": "Cannabinoid receptor 1 (CNR1, Homo sapiens, UniProt P21554)", "Kir3.1/Kir3.4": "Kir3.1/Kir3.4 (Homo sapiens, UniProt P48544+P48549)", "note": "Lines come from different studies, so protocols differ. Values joined by “and” are separate records of one study, mostly repeats; a detail may differ. ± gives the spread as reported.", "UniProt P48544, sequence (whole entry, looked up)": "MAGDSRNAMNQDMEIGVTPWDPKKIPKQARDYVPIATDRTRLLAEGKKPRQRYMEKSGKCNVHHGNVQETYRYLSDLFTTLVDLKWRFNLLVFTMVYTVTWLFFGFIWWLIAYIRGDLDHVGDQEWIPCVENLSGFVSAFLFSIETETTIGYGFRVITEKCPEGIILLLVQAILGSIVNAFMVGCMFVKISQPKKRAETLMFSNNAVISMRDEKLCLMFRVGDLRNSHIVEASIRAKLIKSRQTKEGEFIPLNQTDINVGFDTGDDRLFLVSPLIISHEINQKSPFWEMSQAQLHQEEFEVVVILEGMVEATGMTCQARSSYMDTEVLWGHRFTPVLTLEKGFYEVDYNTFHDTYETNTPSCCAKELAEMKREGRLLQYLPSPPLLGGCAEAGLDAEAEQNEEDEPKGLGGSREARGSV", "UniProt P21554, sequence (whole entry, looked up)": "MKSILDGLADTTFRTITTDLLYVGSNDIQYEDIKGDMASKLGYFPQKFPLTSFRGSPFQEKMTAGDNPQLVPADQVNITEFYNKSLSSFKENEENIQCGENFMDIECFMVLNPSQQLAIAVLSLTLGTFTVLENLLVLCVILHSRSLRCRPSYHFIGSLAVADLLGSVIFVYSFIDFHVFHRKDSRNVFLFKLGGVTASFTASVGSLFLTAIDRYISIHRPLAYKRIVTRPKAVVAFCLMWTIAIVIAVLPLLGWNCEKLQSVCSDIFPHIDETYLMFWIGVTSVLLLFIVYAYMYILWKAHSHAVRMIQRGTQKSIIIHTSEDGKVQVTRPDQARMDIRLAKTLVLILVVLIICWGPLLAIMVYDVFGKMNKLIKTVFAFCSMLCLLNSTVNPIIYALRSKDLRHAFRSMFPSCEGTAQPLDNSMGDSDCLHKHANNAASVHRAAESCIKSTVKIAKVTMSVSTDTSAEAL", "UniProt P48549, sequence (whole entry, looked up)": "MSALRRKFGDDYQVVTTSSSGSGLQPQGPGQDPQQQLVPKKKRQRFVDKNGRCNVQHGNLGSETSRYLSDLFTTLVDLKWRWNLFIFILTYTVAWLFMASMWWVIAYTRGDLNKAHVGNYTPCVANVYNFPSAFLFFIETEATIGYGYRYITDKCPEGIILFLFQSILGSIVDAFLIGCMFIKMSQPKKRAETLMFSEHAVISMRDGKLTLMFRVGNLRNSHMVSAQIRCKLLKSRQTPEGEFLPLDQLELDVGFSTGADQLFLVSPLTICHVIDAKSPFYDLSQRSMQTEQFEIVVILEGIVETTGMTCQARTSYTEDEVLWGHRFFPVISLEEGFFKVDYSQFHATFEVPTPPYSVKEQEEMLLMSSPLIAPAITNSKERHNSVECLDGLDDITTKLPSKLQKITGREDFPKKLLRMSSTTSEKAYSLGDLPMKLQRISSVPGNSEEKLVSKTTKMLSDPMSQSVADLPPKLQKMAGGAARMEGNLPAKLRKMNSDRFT", "UniProt Q9BQB4, sequence (whole entry, looked up)": "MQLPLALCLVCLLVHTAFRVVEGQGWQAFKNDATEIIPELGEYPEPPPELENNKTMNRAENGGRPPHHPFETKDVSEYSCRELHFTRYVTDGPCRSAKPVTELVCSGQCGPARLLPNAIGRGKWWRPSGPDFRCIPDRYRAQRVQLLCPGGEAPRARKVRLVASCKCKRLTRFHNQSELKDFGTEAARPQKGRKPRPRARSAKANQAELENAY", "UniProt P46089, sequence (whole entry, unmodified, looked up)": "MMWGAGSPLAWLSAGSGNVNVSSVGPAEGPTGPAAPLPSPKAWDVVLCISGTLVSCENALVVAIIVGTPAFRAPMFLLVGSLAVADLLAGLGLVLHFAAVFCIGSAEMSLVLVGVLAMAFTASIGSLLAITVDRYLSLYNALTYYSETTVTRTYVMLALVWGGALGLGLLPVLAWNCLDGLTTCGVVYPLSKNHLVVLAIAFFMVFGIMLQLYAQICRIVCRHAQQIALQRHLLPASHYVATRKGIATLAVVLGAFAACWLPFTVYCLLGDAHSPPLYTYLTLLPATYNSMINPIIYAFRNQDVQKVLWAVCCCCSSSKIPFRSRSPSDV", "UniProt P62942, sequence (whole entry, looked up)": "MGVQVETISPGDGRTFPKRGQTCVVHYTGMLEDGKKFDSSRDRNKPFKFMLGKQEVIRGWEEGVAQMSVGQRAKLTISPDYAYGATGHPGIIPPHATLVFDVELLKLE", "UniProt Q92633, sequence (whole entry, looked up)": "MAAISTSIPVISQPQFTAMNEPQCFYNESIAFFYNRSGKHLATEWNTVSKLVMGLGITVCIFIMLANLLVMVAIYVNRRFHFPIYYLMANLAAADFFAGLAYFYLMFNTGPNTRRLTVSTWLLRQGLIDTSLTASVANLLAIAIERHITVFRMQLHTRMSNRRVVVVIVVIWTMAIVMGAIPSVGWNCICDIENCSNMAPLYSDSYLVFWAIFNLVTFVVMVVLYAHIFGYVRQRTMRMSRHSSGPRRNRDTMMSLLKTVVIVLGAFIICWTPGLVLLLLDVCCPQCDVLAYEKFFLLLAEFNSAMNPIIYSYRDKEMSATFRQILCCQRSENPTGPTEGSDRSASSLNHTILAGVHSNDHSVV", "UniProt P21917, sequence (whole entry, looked up)": "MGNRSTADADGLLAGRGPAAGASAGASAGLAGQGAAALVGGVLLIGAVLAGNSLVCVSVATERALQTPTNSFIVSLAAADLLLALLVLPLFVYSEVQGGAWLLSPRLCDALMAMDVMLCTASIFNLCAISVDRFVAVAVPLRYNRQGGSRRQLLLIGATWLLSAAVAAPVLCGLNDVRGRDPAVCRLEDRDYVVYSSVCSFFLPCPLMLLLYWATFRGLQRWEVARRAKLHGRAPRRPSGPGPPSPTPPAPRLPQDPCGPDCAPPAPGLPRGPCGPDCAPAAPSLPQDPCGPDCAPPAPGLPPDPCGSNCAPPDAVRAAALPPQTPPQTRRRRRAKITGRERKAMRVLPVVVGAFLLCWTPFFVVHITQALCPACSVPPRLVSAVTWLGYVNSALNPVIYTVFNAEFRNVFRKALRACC", "UniProt Q8TDU9, sequence (whole entry, unmodified, looked up)": "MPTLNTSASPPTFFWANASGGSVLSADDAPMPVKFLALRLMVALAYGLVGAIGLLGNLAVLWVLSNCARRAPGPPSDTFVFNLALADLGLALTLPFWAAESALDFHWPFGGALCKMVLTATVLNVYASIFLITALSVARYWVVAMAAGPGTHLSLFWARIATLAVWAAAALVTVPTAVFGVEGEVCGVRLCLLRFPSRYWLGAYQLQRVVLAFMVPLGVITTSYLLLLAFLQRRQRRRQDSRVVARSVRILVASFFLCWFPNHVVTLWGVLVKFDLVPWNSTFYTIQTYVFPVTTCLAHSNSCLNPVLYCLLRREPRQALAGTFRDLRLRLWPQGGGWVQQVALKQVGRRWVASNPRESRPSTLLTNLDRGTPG", "UniProt P29275, sequence (whole entry, looked up)": "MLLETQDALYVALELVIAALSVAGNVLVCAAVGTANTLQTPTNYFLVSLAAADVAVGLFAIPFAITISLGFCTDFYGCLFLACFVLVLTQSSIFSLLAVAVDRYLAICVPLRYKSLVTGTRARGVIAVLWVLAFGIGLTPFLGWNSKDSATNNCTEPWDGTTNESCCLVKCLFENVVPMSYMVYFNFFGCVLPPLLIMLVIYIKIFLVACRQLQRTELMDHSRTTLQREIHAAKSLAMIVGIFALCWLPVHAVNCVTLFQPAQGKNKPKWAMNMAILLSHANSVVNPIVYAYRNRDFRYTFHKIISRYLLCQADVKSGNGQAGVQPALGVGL", "UniProt P10636, sequence (whole entry, looked up)": "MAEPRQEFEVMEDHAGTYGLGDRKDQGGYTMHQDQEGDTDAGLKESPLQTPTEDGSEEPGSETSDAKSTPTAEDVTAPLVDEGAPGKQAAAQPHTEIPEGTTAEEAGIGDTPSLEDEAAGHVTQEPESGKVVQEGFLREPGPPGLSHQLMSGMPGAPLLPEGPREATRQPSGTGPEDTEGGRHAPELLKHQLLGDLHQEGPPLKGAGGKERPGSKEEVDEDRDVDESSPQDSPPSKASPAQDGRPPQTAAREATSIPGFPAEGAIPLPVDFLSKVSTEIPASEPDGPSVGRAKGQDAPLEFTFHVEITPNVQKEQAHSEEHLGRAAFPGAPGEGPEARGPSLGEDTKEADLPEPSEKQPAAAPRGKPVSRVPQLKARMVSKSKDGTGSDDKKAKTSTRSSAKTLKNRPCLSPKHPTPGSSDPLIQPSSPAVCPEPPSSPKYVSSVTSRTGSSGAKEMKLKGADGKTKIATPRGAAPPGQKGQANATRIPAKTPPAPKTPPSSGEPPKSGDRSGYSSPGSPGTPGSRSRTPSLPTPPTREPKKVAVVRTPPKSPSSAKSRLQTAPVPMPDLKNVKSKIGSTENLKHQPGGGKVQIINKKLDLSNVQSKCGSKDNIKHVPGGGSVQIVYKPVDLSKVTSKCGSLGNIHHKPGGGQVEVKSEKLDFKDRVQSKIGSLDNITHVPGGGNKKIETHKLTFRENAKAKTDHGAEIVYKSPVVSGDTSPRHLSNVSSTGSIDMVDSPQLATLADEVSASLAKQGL", "UniProt P25103, sequence (whole entry, unmodified, looked up)": "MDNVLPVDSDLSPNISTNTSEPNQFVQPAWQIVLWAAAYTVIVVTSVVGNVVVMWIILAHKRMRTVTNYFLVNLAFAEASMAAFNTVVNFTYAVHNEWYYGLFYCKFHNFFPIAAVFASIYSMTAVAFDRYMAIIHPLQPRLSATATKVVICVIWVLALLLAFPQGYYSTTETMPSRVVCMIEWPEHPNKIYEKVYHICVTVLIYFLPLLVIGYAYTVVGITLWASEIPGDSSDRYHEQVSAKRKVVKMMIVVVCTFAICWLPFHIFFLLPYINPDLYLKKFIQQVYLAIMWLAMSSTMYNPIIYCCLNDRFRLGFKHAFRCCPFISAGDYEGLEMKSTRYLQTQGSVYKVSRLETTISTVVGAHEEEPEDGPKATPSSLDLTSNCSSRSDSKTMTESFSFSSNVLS"}
{"Structure (SMILES)": "CC(=O)N[C@@H]1[C@@H](O[C@@H]2O[C@H](C(=O)O)[C@@H](O[C@@H]3O[C@H](COS(=O)(=O)O)[C@@H](O)[C@H](O[C@@H]4O[C@H](C(=O)O)[C@@H](O)[C@H](O)[C@H]4O)[C@H]3NC(C)=O)[C@H](O)[C@H]2O)[C@H](O)[C@@H](COS(=O)(=O)O)O[C@H]1N=[N+]=[N-]", "target": "SOST", "assay": "fluorescence polarization competition", "conditions": "added: TAMRA-labelled probe", "EC50": "74000 ± 13200 nM"}
{"Structure (SMILES)": "COc1ccc(-n2nc([N+](=O)[O-])/c(=N/c3cc(C)ccc3C)n2O)cc1", "target": "Microtubule-associated protein tau, phosphorylated (MAPT, Homo sapiens, UniProt P10636)", "assay": "tau aggregation cytotoxicity, 10-point dose response", "EC50": "> 28700 nM"}
{"Structure (SMILES)": "CCN(CC)C(CO)c1cccc2c(C)c(C)oc12 (centres unmarked)", "target": "LPAR1 (Homo sapiens, UniProt Q92633)", "assay": "G protein activation, agonist, BRET", "EC50": "2.28 nM"}
{"Structure (SMILES)": "CC(=O)N[C@@H]1[C@@H](O[C@@H]2O[C@H](C(=O)O)[C@@H](O[C@@H]3O[C@H](COS(=O)(=O)O)[C@@H](OS(=O)(=O)O)[C@H](O[C@@H]4O[C@H](C(=O)O)[C@@H](OS(=O)(=O)O)[C@H](OS(=O)(=O)O)[C@H]4OS(=O)(=O)O)[C@H]3NC(C)=O)[C@H](OS(=O)(=O)O)[C@H]2OS(=O)(=O)O)[C@H](OS(=O)(=O)O)[C@@H](COS(=O)(=O)O)O[C@H]1SCCOCCOCCSSCCOCCOCCS[C@@H]1O[C@H](COS(=O)(=O)O)[C@@H](OS(=O)(=O)O)[C@H](O[C@@H]2O[C@H](C(=O)O)[C@@H](O[C@@H]3O[C@H](COS(=O)(=O)O)[C@@H](OS(=O)(=O)O)[C@H](O[C@@H]4O[C@H](C(=O)O)[C@@H](OS(=O)(=O)O)[C@H](OS(=O)(=O)O)[C@H]4OS(=O)(=O)O)[C@H]3NC(C)=O)[C@H](OS(=O)(=O)O)[C@H]2OS(=O)(=O)O)[C@H]1NC(C)=O", "target": "SOST", "assay": "fluorescence polarization competition", "conditions": "corrected value, added: TAMRA-labelled probe", "EC50": "3940 ± 5140 nM"}
{"Structure (SMILES)": "CCOC(=O)C(CC)(CCCSCCOCCOCCN)NC(=O)c1ccc(C2CC2)c(Cc2ccc(F)cc2)n1 (racemic)", "target": "CNR1", "assay": "cAMP, agonist", "EC50": "822 nM"}
{"Structure (SMILES)": "CC(=O)N[C@H]1[C@H](O[C@H]2[C@H](OS(=O)(=O)O)[C@@H](OS(=O)(=O)O)[C@H](O[C@H]3[C@H](OS(=O)(=O)O)[C@@H](COS(=O)(=O)O)OC[C@@H]3NC(C)=O)O[C@@H]2C(=O)O)O[C@H](COS(=O)(=O)O)[C@@H](OS(=O)(=O)O)[C@@H]1O[C@@H]1O[C@H](C(=O)O)[C@@H](OS(=O)(=O)O)[C@H](OS(=O)(=O)O)[C@H]1OS(=O)(=O)O", "target": "SOST", "assay": "fluorescence polarization competition", "conditions": "added: TAMRA-labelled probe", "EC50": "4920 ± 680 nM"}
{"Structure (SMILES)": "O=C(CCc1ccc2n1[B-](F)(F)[N+]1=C(c3ccc[nH]3)C=CC1=C2)NCCCn1cc([C@H]2CN(Cc3ccccn3)C(=O)[C@@H]3CCC[C@H]2N3S(=O)(=O)c2cc(Cl)cc(Cl)c2)nn1", "target": "FKBP1A (Homo sapiens, UniProt P62942)", "assay": "tracer binding, NanoBRET tracer titration", "system": "HEK293T transiently expressing FKBP1A", "conditions": "2 h, 37 °C", "EC50": "26 ± 3 nM"}
{"Structure (SMILES)": "CC(=O)N[C@@H]1[C@@H](O[C@@H]2O[C@H](C(=O)O)[C@@H](O[C@@H]3O[C@H](CO)[C@@H](O)[C@H](O[C@@H]4O[C@H](C(=O)O)[C@@H](OS(=O)(=O)O)[C@H](OS(=O)(=O)O)[C@H]4OS(=O)(=O)O)[C@H]3NC(C)=O)[C@H](OS(=O)(=O)O)[C@H]2OS(=O)(=O)O)[C@H](O)[C@@H](CO)O[C@H]1N=[N+]=[N-]", "target": "SOST", "assay": "fluorescence polarization competition", "conditions": "corrected value, added: TAMRA-labelled probe", "EC50": "35400 ± 9700 nM"}
{"Structure (SMILES)": "O=C(COc1cccc(Cl)c1Cl)Nc1cc(C2CC2)nn1C1CCOCC1", "target": "Kir3.1/Kir3.4", "assay": "activator, thallium flux", "system": "HEK293", "EC50": "725 nM"}
{"Structure (SMILES)": "O=C(Cc1ccc(OCc2ccccc2)cc1)NC1(C(=O)O)CCN(C(=O)c2ccc(-c3cccc(Cl)c3)cc2)CC1", "target": "CNR1", "assay": "cAMP, agonist, luciferase", "EC50": "> 10000 nM"}
{"Structure (SMILES)": "CCOC(=O)C(CC)(CCCSCCOCCOCCOCCNc1ccc([N+](=O)[O-])c2nonc12)NC(=O)c1ccc(C2CC2)c(Cc2ccc(F)cc2)n1 (centres unmarked)", "target": "CNR1", "assay": "cAMP, agonist", "EC50": "789 nM"}
{"Structure (SMILES)": "Cc1cccc(-c2ccc([C@@H]3[C@@H](CO)N4CCCCN(S(=O)(=O)c5ccccc5C(F)(F)F)C[C@@H]34)cc2)c1C", "target": "IDE (Homo sapiens, UniProt P14735)", "assay": "inhibitor", "EC50": "5 nM"}
{"Structure (SMILES)": "CNc1ncnc2c1ncn2C1OC(CO)C(O)C1O (centres unmarked)", "target": "ADORA2B (Homo sapiens, UniProt P29275)", "assay": "G protein activation, agonist", "EC50": "39000 nM"}
{"Structure (SMILES)": "Fc1ccc(CN2CCC[C@@H](c3nc(-c4ccc(F)c5cn[nH]c45)no3)C2)cn1", "target": "CNR1", "EC50": "94.6 nM and 116 nM and 119 nM"}
{"Structure (SMILES)": "CC(C)Oc1cc(Cl)ccc1CNc1cc(-c2ccccc2)nc2ncnn12", "target": "GPR3 (Homo sapiens, UniProt P46089, R152A)", "assay": "cAMP level, agonist, GloSensor", "conditions": "receptor R152A mutant", "EC50": "155 nM and 123 nM and 132 nM and 339 nM"}
{"Structure (SMILES)": "O=C(O)c1ccccc1OCc1ccccc1Br", "target": "CDC42 (Homo sapiens, UniProt P60953)", "assay": "GTP binding, flow cytometry bead", "conditions": "EDTA buffer, added: 100 nM BODIPY-GTP", "EC50": "102 nM"}
{"Structure (SMILES)": "CCc1cc(NC(=O)COc2ccc(C(F)(F)F)cc2C(F)(F)F)n(C2CCC(F)(F)CC2)n1", "target": "Kir3.1/Kir3.4", "assay": "activator, thallium flux", "system": "HEK293", "EC50": "480 nM"}
{"Structure (SMILES)": "CC(=O)N[C@@H]1[C@@H](O[C@@H]2O[C@H](C(=O)O)[C@@H](O[C@@H]3O[C@H](CO)[C@@H](OS(=O)(=O)O)[C@H](O[C@@H]4O[C@H](C(=O)O)[C@@H](OS(=O)(=O)O)[C@H](OS(=O)(=O)O)[C@H]4OS(=O)(=O)O)[C@H]3NC(C)=O)[C@H](OS(=O)(=O)O)[C@H]2OS(=O)(=O)O)[C@H](OS(=O)(=O)O)[C@@H](CO)O[C@H]1N=[N+]=[N-]", "target": "SOST", "assay": "fluorescence polarization competition", "conditions": "corrected value, added: TAMRA-labelled probe", "EC50": "28300 ± 2000 nM"}
{"Structure (SMILES)": "CCc1cc(O)cc2c(/C=N/NC(=N)NCCc3ccc(Cl)cc3)c[nH]c12", "target": "RXFP4 (Homo sapiens, UniProt Q8TDU9, T295V)", "assay": "agonist", "EC50": "8.13 nM"}
{"Structure (SMILES)": "CSCC[C@H](NC(=O)[C@H](CC(C)C)NC(=O)CNC(=O)[C@H](Cc1ccccc1)NC(=O)[C@H](Cc1ccccc1)NC(=O)[C@@H](N)CCC(N)=O)C(N)=O", "target": "TACR1 (Homo sapiens, UniProt P25103, N85Q)", "assay": "agonist", "conditions": "concentration not given", "EC50": "63.1 nM"}
{"Structure (SMILES)": "CCOC(=O)C(CC)(CCCSCCOCCN)NC(=O)c1ccc(C2CC2)c(Cc2ccc(F)cc2)n1 (centres unmarked)", "target": "CNR1", "assay": "cAMP, agonist", "EC50": "0.6 nM"}
{"Structure (SMILES)": "O=C(COc1cccc(Cl)c1Cl)Nc1cc(C2CC2)nn1CC(F)(F)F", "target": "Kir3.1/Kir3.4", "assay": "activator, thallium flux", "system": "HEK293", "EC50": "> 10000 nM"}
{"Structure (SMILES)": "CC1Cc2ccccc2N1C(=O)CN1CCN(Cc2ccccc2)CC1 (centres unmarked)", "target": "DRD4 (Homo sapiens, UniProt P21917)", "assay": "agonist", "EC50": "2 nM"}
{"note": "Excerpt of the above:"}
{"Structure (SMILES)": "CCOC(=O)C(CC)(CCCSCCOCCOCCOCCNc1ccc([N+](=O)[O-])c2nonc12)NC(=O)c1ccc(C2CC2)c(Cc2ccc(F)cc2)n1 (centres unmarked)", "target": "CNR1", "assay": "cAMP, agonist", "EC50": "789 nM"}
{"Structure (SMILES)": "Cc1cccc(-c2ccc([C@@H]3[C@@H](CO)N4CCCCN(S(=O)(=O)c5ccccc5C(F)(F)F)C[C@@H]34)cc2)c1C", "target": "IDE (Homo sapiens, UniProt P14735)", "assay": "inhibitor", "EC50": "5 nM"}
{"Structure (SMILES)": "CNc1ncnc2c1ncn2C1OC(CO)C(O)C1O (centres unmarked)", "target": "ADORA2B (Homo sapiens, UniProt P29275)", "assay": "G protein activation, agonist", "EC50": "39000 nM"}
{"Structure (SMILES)": "Fc1ccc(CN2CCC[C@@H](c3nc(-c4ccc(F)c5cn[nH]c45)no3)C2)cn1", "target": "CNR1", "EC50": "94.6 nM and 116 nM and 119 nM"}
